Published values gathered from unrelated publications.
A part holds a random share of what one study measured.

Set 1
Target: RNA binding protein fox-1 homolog 2, RRM domain, GST-SBP tag (RBFOX2, Homo sapiens, UniProt O43251-10, residues 100-194)
Technique: RNA Bind-n-Seq
Form: RNA
Medium: in vitro
Concentration: 365 nM
Notes: natural RNA segment, single round, ends assumed
Relative to: no-protein control
Direction: higher = stronger binding
Shared flanks, not repeated: GGGAGUUCUACAGUCCGACGAUC … UGGAAUUCUCGGGUGCCAA
Residues (chain): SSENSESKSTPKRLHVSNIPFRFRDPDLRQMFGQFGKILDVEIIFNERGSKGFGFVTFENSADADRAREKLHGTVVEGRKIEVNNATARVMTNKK
Oligonucleotide	RBNS enrichment (R)
UUCACAUUUAACCUUAAACACCUAUGCAGUCAUGUUGGGGGAGUGUCCCAAUGUUACCUCAACACCACGAAGCUUAUUUCUAUACUGGAGUUCUUCAGUAUAGAAAGUGG	0.319
GUGCCUGUUACAUAGAGAGGCUCCUUCUGUCCAAAUGAAUUUCUGUAUACUCUUCUAUAAAUAAAAGGGAGGAAUAUAUUCUGCUGGAAGCCCAUGAACCAUCGCUGAGG	0.302
GUCUGGCUCUCAGGCUGUAGGCAGUGAUGGGGCAGCACAAGGCUGGAUAAAUCCCUUCCCUAUUGACCUUCUUACAUAGUGCAAGCAAUAAGACUUAUUGAUCUGUGUGU	0.504
AACUCUGAUCCCGAUGGAGGCUGCACGCCUCCCCCACCCCAUGAUAGCAUCUGUGUGUAUUAAUUCUGAAGAAUUAAAUGUUUAAAUUAGAGUUUAAAUGUUGACGGCGU	0.354
GUUAAUCCUCUCCAGCAGGAUGCCCACUGGAUAUAUUAACAUCUGUAGGUAGUUGGAAGUGUAGAGAGAAGAGAAGGUAAGACUUCUCAGUGAAUGGAAGGAUGUCUUGA	4.29
UGGGCAGGGAGGGCCUGUCUGUGACUCGCUCUGGACCCCACUUCCCGCUCUGGCCAAGGGCUGUCUUCUGUGCACAUAGCUCAGGAGCCUGCAGCAGUUCCCUGUAUGGG	0.468
CUUACCUCUGAUCCACUUAGAGCAAUAACCACUUUUUAAAUGUAAAAUAAAAAGACAAAUGAAAAGGACAUCCUUGUCUUCUGGUAAAUGCCCAAAUGUUGCCCUCUUUU	0.437
UCUCUUUAGUACUUACGUAUUGGGAUUCCUGUGUCUUACAGCUCUCCCUCUCCAAAUAAUACACAGAAUCCUGCAACUUUUUGCACAGCUGGUAUCUGUCUGGUAGCAGU	0.325
UUCAACCAAGGCCACAUAAUAACCCAGUUAACUUACUCUUUAACCAGGAAUAUUAAGUUCUAUAACUAGUACUCAAGGUUUAACCUUAAAAUUAAGAUUUCCUUAACCUU	0.333
UGAAGGAAAGGAGAUGCCAGGAUGCUACUCCAUUCCUUCUCUGGGAAUUGCCAGUCCAACUUUUCCUGGCACUGGAAGAAAAAAAAUAAGUGUCCCACCCCUGGAGGGUU	0.356
UUUCCACAGCAAAGAAUAUUUGAUAAUGGUUGCACUUAUCUUCAGUACAGGCUAGAAAAGAGUUCUCAACCAGGCUUAACUGGAGUGGUCUCAGAAAGCCAUCAACAGGC	0.431
AUUUUGAUUUAUGUCAAAUCCUAAUUCUAUCAUUCAGUCUUGUUUGGAGUUCUGAACCCAUGAUGUUGUAUUAUGCUUCUUUCUCCUCUUAGCACUCUCAAAUUUCAGGU	0.439

Set 2
Target: Sal-like protein 4, full length isoform B (SALL4, Homo sapiens, UniProt Q9UJQ4-2, residues 1-616)
Technique: universal PBM
Form: double-stranded DNA, one strand shown
Medium: in vitro
Concentration: not given
Notes: 8-mer, flanks averaged, mean of replicates
Direction: higher = stronger binding
Construct (chain): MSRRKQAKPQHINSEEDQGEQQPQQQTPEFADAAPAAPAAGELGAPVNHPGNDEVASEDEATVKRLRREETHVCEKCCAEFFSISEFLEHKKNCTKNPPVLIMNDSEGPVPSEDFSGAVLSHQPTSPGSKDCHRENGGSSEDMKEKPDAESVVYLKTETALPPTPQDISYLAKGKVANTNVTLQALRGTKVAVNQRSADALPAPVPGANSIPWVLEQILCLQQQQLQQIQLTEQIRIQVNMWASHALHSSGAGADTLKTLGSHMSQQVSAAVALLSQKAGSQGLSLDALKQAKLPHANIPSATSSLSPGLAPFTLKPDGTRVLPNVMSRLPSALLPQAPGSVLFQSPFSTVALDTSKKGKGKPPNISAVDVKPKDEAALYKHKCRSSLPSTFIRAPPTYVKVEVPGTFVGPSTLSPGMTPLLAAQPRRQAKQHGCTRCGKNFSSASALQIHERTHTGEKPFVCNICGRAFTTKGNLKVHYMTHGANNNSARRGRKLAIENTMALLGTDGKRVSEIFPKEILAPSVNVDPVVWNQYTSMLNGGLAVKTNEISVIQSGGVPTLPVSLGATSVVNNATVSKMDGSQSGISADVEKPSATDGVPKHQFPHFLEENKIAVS
Oligonucleotide	E-score
TATGACCA	0.202
GATCTCCC	-0.235
AGTTGCAA	0.0588
GAGCACTA	-0.0728
AAATTCGA	0.221
TATTTGGA	0.152
CTTAGTGC	-0.103
AACGTTCT	0.0962
ATCAACAA	0.215
CAGTGAGC	-0.205
CAGTCCAC	-0.112
CACGCGAA	-0.0497
CGCCCGCA	-0.276
GCAATCAC	0.068
CGACGGTA	-0.0765
TCACGGAA	0.102
CGTTTGCC	-0.165
ACCGCAAA	-0.00773
CTGCCAAA	-0.038
AGATTAAA	0.213
ACGATCTG	-0.172
CAACTGGG	-0.327
AACCTTGG	-0.0435
ACATTTAG	0.224
TAAGGAAA	0.141

Set 3
Target: Ras GTPase-activating protein-binding protein 1, full length (G3BP1, Homo sapiens, UniProt Q13283)
UniProt Q13283, sequence (whole entry, looked up): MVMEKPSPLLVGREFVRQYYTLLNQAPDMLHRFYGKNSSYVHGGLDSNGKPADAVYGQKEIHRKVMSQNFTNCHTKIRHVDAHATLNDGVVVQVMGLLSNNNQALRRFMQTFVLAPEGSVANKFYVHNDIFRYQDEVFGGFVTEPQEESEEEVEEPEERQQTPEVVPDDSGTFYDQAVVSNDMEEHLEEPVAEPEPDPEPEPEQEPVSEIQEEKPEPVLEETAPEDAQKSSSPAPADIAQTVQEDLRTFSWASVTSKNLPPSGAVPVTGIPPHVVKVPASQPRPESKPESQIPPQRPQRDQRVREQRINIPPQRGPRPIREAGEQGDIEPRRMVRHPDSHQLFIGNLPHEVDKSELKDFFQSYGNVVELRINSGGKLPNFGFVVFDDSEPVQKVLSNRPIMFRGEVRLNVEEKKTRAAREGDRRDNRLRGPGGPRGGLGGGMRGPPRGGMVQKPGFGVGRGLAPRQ
Technique: RNA Bind-n-Seq
Form: RNA
Medium: in vitro
Concentration: 200 nM
Notes: whole 134-nt RNA, ends assumed
Together with: 150 mM LiCl
Relative to: input library
Direction: higher = stronger binding
Library: 7-deaza-guanosine replaces G
Shared flanks, not repeated: GGGAGUUCUACAGUCCGACGAUC … UGGAAUUCUCGGGUGUCAAGG
Oligonucleotide	log2 enrichment
CUAGAGAGCUGUAGUACACAUGGAUGAACGACGAGAAGAACAAAUUGUACAGUUACUGAAUUCUGUUCAAGCGAAGAAUGAUAAAGAGUC	-1.14
UCCUCCCUGGCUUCAGCCAGUCCCUGACGCUGAGCACUGGCUUCCGAGUCAUCAAGAAGAAGCUGUACAGCUCGGAACAGCUGCUCAUUG	-0.617
UAAAUUCAUCUGAAAAUGGUGAGGACAGGCACAAACGCAAAGAAAGAAAGUCAUCAAGAGGCAGAAGUCACUCAAGAUCUAGGUCUCGUG	-2.34
ACCAUGCAGGUGGGCAUCUUUGGGAAUUGGGGCAAGGGGGGGAUAGGGAGGGGGGUAACACUUUGGGAACAGGUGGUCCCAGGUCGUUUC	0.37
UAACAUUAGAGGAGGAUCUGAUGGAUAUGGCAGUGGACGUGGAUUUGGGGAUGGCUAUAAUGGGUAUGGAGGAGGACCUGGAGGUGGCAA	0.0268
CUUGACCCUCAACACCAACCAUGGGCAUAUCCUGGUGGAUUACUCCAAGAACCUGGUGACGGAGGACGUGAUGCGGAUGCUGGUGGACUU	-1.86
CGGCCCUGGUGGCAUGCGGGGAGGAAGAGGUGGCCUCAUGGAUCGUGGUGGUCCCGGUGGAAUGUUCAGAGGUGGCCGUGGUGGAGACAG	0.503
AGUCCUGUGCUACACAUCGUAUGUACCGAAUCGGUUUUUUUGGAAAGGAAAAAAAGGAAAGUAUUAUGUUACGCCGUUCGGAUCUGCACU	-2.08
CACAGACAACACGCACCCACACAGACACAGAGGGAAGGGGUUGGGAUGGGGACAAGGUGCACAGCAGGGCGGGGUAGGACCCCAGCCCCU	-0.0471
ACCAUGCAGGUGGGCAUCUUUGGGAAGUGGGGCAAGGGGGGGAUAGGGAAAAGGGUAACACUUUGGGAACAGGUGGUCCCAGGUCGUUUC	0.474
AAGUCCUGUGCUACACAUCGUAUGUACCGAAUCGGGUUUGGGUUUUUGGGAAAGGGAAAGUAUUAUGUUACGCCGUUCGGAUCUGCACUU	0.151

Set 4
Target: Phosphate system positive regulatory protein PHO4, full length, GST-tagged (PHO4, Saccharomyces cerevisiae, UniProt P07270, residues 1-312)
Technique: competition protein-binding microarray
Form: double-stranded DNA, one strand shown
Medium: in vitro
Concentration: 2 µM
Notes: whole 60-bp probe, lowest competitor level
Together with: Cbf1 competitor, 0.05 µM
Direction: higher = stronger binding
Shared flanks, not repeated: … GTCTTGATTCGCTTGACGCTGCTG
Target sequence (chain): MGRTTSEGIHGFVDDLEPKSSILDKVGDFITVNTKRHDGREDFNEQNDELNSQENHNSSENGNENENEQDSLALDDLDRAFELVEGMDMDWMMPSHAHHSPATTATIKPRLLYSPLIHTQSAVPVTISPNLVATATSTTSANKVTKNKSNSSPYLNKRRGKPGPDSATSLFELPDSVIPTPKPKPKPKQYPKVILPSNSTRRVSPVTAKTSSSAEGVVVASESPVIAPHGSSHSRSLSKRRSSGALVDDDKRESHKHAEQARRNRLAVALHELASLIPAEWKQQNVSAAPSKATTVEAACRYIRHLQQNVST
Oligonucleotide	fluorescence intensity
AAGTTATGATATCTGCACGTGGAACACTTCCAATCT	16800 a.u.
CTTCTGTAAATTTGCTCAGTGGGTGGACGCGCCCCG	4180 a.u.
ACATAGTCTGATCGGCACGTGAGAAAGTGCCATACC	14000 a.u.
ATACGTATGTGTTCGTACGTGCGATCCGCAAGGTCT	7240 a.u.
TGCGAGATATACCATCACGTGAGGTGGATTTGATCT	12800 a.u.
CATTCGGTTAATCAACACGTGGAAGTCCCAGGTTCT	17100 a.u.
ACTTTGTTATTAATCCACGTGAGGACCAAATCTATG	15600 a.u.
AAATTACTAAGTTGGAACGTGGGTGACGCCGTATGA	14400 a.u.
TCTAGCATTTCCATACAGGTGATAGTATCAAATTGT	4110 a.u.
AGCAATTCGGCCAACAACGTGCTTTCCTTCATCTCT	12900 a.u.
TTTCTTTTCCACTATTACGTGGTGATTCCAGTAGCG	4970 a.u.
CATACCCAACCTTCACACGTGTTTTAAGATATTTGT	19900 a.u.
CGGGGTTAAGTTTGATACGTGGGTGGCTTGCAGCAG	7210 a.u.
CGGGGTTAAGTTTGACCTGTGGGTGGCTTGCAGCAG	4650 a.u.
CATACCCAACCTTGGAGGGTGGGTGAAGATATTTGT	3960 a.u.
CCCGGACATGTACGCCAGGTGATGTTCCATTTGCCA	4300 a.u.
TGAAATGGAATCGACCACGGGTCTTGTTGAAAGCAG	9470 a.u.
CTATGACGAATCAATGACATGACAACATTTACCAAT	4230 a.u.
ATAAGTTTCCCTGGTTACGTGTTGAAGCAGACCGCA	4600 a.u.
CTAACGAAGGTTTGGATTGTGGGTGACAAGCCAAGT	4240 a.u.
CGTCCTAGTGATTGGCATGTGGGTGCCATGAGGAAG	11500 a.u.
CTAACGAAGGTTTGTTTTGTGGGTGACAAGCCAAGT	3830 a.u.
CTTTCCCGATCTTGCCTGGTGGGTGTAGCACATTTG	5170 a.u.

Excerpt of the above (set 4):
Oligonucleotide	fluorescence intensity
CTTCTGTAAATTTGCTCAGTGGGTGGACGCGCCCCG	4180 a.u.
CGGGGTTAAGTTTGACCTGTGGGTGGCTTGCAGCAG	4650 a.u.
CTATGACGAATCAATGACATGACAACATTTACCAAT	4230 a.u.
TGCGAGATATACCATCACGTGAGGTGGATTTGATCT	12800 a.u.
CTTTCCCGATCTTGCCTGGTGGGTGTAGCACATTTG	5170 a.u.
AAATTACTAAGTTGGAACGTGGGTGACGCCGTATGA	14400 a.u.
